{"data": "Experimental data collected from several papers", "note": "Lines come from different studies, so protocols differ. ± marks the error that the study gave."}
{"SMILES": "N#Cc1ccc(C(c2ccc(C#N)cc2)n2cncn2)cc1", "system": "human patients, plasma", "conditions": "oral, 5 mg daily", "measurement": "AUC at steady state per dose", "value": "2.45 ± 0.27 µg·h/mL/mg"}
{"SMILES": "COc1ccc2nc([S@@+]([O-])Cc3ncc(CO)c(OC)c3C)[nH]c2c1", "system": "human, dried plasma spots", "conditions": "dose not given, added: rifampicin pretreatment", "scale": "relative to: control over induction", "measurement": "AUC fold decrease", "value": "2.6 fold"}
{"SMILES": "Cc1cc(-c2nccc3c2ccn3CC(=O)Nc2ccc(-c3cnccn3)cn2)ccn1", "system": "human, plasma", "conditions": "oral, 7 mg single dose, geometric mean", "measurement": "AUC", "value": "0.61 µM·h"}
{"SMILES": "O=C(COc1ccc(Cl)cc1)NC12CC(c3nnc([C@H]4C[C@@H](OC(F)(F)F)C4)o3)(C1)C2", "system": "healthy human volunteers fasted, plasma", "conditions": "oral, 200 mg single dose, geometric mean", "measurement": "AUC", "value": "143 µM·h"}
{"SMILES": "CC(C)(C(=O)N1CCOc2c(C#N)cncc2C1)C(F)F", "system": "healthy humans, both sexes, plasma", "conditions": "oral, 30 mg single dose, 3-fold dose increase", "scale": "relative to: 30 mg over 10 mg", "measurement": "AUC dose proportionality ratio", "value": 2.09}
{"SMILES": "COc1ccc2nc([S@@+]([O-])Cc3ncc(C)c(OC)c3C)[nH]c2c1", "system": "human male, dried plasma spots", "conditions": "dose not given, mean of (R)- and (S)-enantiomers, added: fluvoxamine and voriconazole", "scale": "relative to: inhibition over control", "measurement": "AUC fold change", "value": 8.1}
{"SMILES": "N#Cc1cc(NC(=O)[C@H]2c3ccccc3C(=O)N(CC(F)(F)F)[C@@H]2c2cccnc2)ccc1F", "system": "human, plasma", "conditions": "oral, 900 mg, median", "measurement": "AUC", "value": "17100 ng·h/mL"}
{"SMILES": "C=CC(=O)N1CCC[C@@H](n2c(=O)n(-c3ccc(Oc4ccccc4)cc3)c3c(N)nccc32)C1", "system": "human", "conditions": "oral, 300 mg", "scale": "relative to: fed over fasted", "measurement": "AUC fed/fasted ratio", "value": 1.12}
{"SMILES": "Nc1ccn([C@@H]2O[C@H](CO)[C@@H](O)C2(F)F)c(=O)n1", "system": "human patients, plasma", "conditions": "intravenous, 800 mg/m2, mean, after paricalcitol", "measurement": "AUC extrapolated", "value": "0.513%"}
{"SMILES": "C=CC(=O)Nc1cc(Nc2nccc(-c3cn(C)c4ccccc34)n2)c(OC)cc1N(C)CCN(C)C", "system": "human patients", "conditions": "oral, 80 mg, cycle 3 day 1, monotherapy, geometric mean", "measurement": "AUC at steady state", "value": "11.8 µM·h"}
{"note": "Some of these lines once more:"}
{"SMILES": "O=C(COc1ccc(Cl)cc1)NC12CC(c3nnc([C@H]4C[C@@H](OC(F)(F)F)C4)o3)(C1)C2", "system": "healthy human volunteers fasted, plasma", "conditions": "oral, 200 mg single dose, geometric mean", "measurement": "AUC", "value": "143 µM·h"}
